Experimental data gathered from unrelated publications.
Numbered parts are unrelated; each lists some results of a single study.

Block 1
Target: Histone acetyltransferase KAT6A, winged helix 2, GST fusion (KAT6A, Homo sapiens, UniProt Q92794, residues 85-181)
Technique: protein binding microarray
Form: double-stranded DNA, one strand shown
Sample: in vitro
Concentration: not given
Notes: 8-mer, flanks averaged, mean of 2 arrays, mostly near background
Baseline: not given
Reading: higher = stronger binding
Residues (chain): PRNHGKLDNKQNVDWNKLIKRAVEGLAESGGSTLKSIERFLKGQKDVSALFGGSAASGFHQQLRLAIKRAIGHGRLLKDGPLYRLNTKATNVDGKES
Oligonucleotide	E-score
AACGTCGA	0.0116
GGCAAACA	-0.00824
CAGTCAGG	-0.196
AGAGGTAG	-0.00777
GTGCGCTA	-0.102
CCTGGAAA	0.0642
AGAGCCCT	0.0296
GAAAGGAC	-0.00128

Block 2
Target: Interferon regulatory factor 7, full length, phosphomimetic (IRF7, Homo sapiens, UniProt Q92985, residues 1-503, S471D/S472D/S475D/S476D/S477D/S483D/S484D/S487D)
Chain of UniProt Q92985 (whole entry, unmodified, looked up): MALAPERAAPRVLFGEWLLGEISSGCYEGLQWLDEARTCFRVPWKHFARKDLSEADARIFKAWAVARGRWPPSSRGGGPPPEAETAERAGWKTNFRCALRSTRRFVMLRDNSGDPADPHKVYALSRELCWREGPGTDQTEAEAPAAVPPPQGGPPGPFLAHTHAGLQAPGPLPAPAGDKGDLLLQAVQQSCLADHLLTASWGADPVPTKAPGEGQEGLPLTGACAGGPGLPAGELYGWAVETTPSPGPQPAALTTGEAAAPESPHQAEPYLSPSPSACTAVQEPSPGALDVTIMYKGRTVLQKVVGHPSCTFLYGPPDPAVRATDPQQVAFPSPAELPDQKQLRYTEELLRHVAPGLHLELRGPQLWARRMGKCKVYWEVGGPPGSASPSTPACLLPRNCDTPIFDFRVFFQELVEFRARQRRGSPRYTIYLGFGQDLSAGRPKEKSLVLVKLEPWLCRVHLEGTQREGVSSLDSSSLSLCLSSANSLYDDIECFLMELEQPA
Technique: protein-binding microarray
Form: double-stranded DNA, one strand shown
Sample: in vitro
Concentration: 2200 nM top
Notes: 60-bp whole probe
Together with: salmon DNA 0.4 mg/ml
Baseline: random background probes
Reading: higher = stronger binding
Shared flanks, not repeated: GCCTAGCAC … GTCTTGATTCGCTTGACGCTGCTG
Oligonucleotide	fitted relative affinity [z-score]
TTAGGCATCGGGTTTCGGTTAGTGCTA	3.24
GACGATCTCAGTTTCGAGACGTGCTAG	3.61
CAGCCTCTGCATTCCCTCAGGTGCTAG	0.622
TTAGGTATCCTTCTCTTTTAGTGCTAG	1.18
GTGTTCTGGGCAGCAGAGGGGTGCTAG	-0.0942
GACGGTTTCGGGACTGGTGACGTGCTA	3.65
TTAGGTCTCCTTATCATTTAGTGCTAG	0.734
GACGGTTTCGGCTCCGGGACGTGCTAG	3.34
TTAGATATCGACTTTCGGTTAGTGCTA	6.22
TTAGGTTTCGGGTTTCTGTTAGTGCTA	8.44
CTAGGACTGCTTATCCTTTAGTGCTAG	0.333
TTAGGTATCGGTCTCGGTGAGTGCTAG	0.545
TCAGTTATTAAATTTTCAACTGTGCTA	0.00519
GACGGACTGGGGTATCGGGCCGTGCTA	-1.09

Block 3
Target: RNA binding protein fox-1 homolog 2, RRM domain, GST-SBP tag (RBFOX2, Homo sapiens, UniProt O43251-10, residues 100-194)
Technique: RNA Bind-n-Seq
Form: RNA
Sample: in vitro
Concentration: 365 nM
Notes: natural RNA segment, single round, ends assumed
Baseline: no-protein control
Reading: higher = stronger binding
Shared flanks, not repeated: GGGAGUUCUACAGUCCGACGAUC … UGGAAUUCUCGGGUGCCAA
Oligonucleotide	RBNS enrichment (R)
UUUCCAACCUUAAUACUAUUAGUAACCACAAGUUCAAGGGUCAAAGGGACCCUCUGUGCCUUCUUCUUUGUUUUGUGAUAAACAUAACUUGCCAACAGUCUCUAUGCUUA	0.545
CCUGCCCAGACAAAGCCCCGCCUUCCCCAAAGCAGAGGGGCUGUCUGUGUCUCCAGAAAGGGGACAUCGGGGGGGAGGGGGGCUCAGAAAGGAGAAGGGCUGUGAUCUCC	0.641
GUAAGGCAGCUUGUUGGCCCUUGUUACAGUAUCUUAGUGUACCCUCCUGUUACAGCUUCCACACUCAGCCGGCUUGCUUCAGUAUUUUUGCUUCCUGUAUAUUCUUAUAC	3.03
GAAGGCAGGUGGGAGGGAAAGGAAGGGGCACAGCCCUAUUUCUUCCUACCUGCUAGGACAAGGUGGAAGAGUGUAUCUGGGGUGGGAAGGAGGGCUUCCCCUCUCUGCUG	0.661
UCACAAGUUCCAGGUCAGCCUGUGCUGUGUAGCACAGUCCAGCUCCCUACACCUCCUCACACACACAGUGGCUGCUGGGUGACCGUUCCCUUUUUUCUUUGGAACUUGGC	0.455
GUGUUAUCCUCUAAGUGUGAUAAACUGUGCUUUACCGCUCCGAACACUCAGGACUCCGUGUGUAUCAGUGUGGGCUCCUCAGUAAGGAAGAGGAGCUCAAAGUUUGUGUG	0.75
UUUAAAUGGGUUAAAAAGAUGUUAAUAUAACAAUAUAUGAUAUAUAAACCUUAAGUGAAAUGAAAGAAAAAGAUCUAUUGCAGAUAUCUGAUGGAUGUAGUUUUCUUUUU	0.732
AUGGCUGAGAGCUGCCGUUCCUCUUUCACGAUCCCAGCCCCAUUUCAGUGUCUGGGGCUCUGGUAGAUGUGUUGAGGGCAAAGUAGAGGACAAGCUGUCUUUCCCAGUCA	0.827

Mixed results
Substance	target	test	system	setting	how to read	measurement	value
PhoQ, residues 284 288 289 292 302 303 TTSMTC	PhoP, residues 12 14 15 18 19 VQALL (Escherichia coli, UniProt P23836)	Sort-seq, item: YFP reporter	E. coli	PhoQ-PhoP variant library, together with: 10 µM Mg2+	baseline: high Mg2+ state, higher = stronger signaling	fold induction	9.21

A few entries again (block 3):
Oligonucleotide	RBNS enrichment (R)
UCACAAGUUCCAGGUCAGCCUGUGCUGUGUAGCACAGUCCAGCUCCCUACACCUCCUCACACACACAGUGGCUGCUGGGUGACCGUUCCCUUUUUUCUUUGGAACUUGGC	0.455
GUGUUAUCCUCUAAGUGUGAUAAACUGUGCUUUACCGCUCCGAACACUCAGGACUCCGUGUGUAUCAGUGUGGGCUCCUCAGUAAGGAAGAGGAGCUCAAAGUUUGUGUG	0.75
UUUAAAUGGGUUAAAAAGAUGUUAAUAUAACAAUAUAUGAUAUAUAAACCUUAAGUGAAAUGAAAGAAAAAGAUCUAUUGCAGAUAUCUGAUGGAUGUAGUUUUCUUUUU	0.732
